Results collected from several papers.
Each line is one published result; not all experiments were run side by side. “And” joins repeats or separate records; there may be more than shown. ± marks the error that the study gave.

Compound = COc1ccc2c(c1)[nH]c1c(C)nccc12; cell line = DU-145; assay = bisulfite pyrosequencing, refers to: RASSF1A promoter CpG site 24; conditions = concentration not given; scale = reference: vehicle; endpoint = methylation reduction; result = 0%
Compound = CN1CC[C@]2(C)c3cc(OC(=O)Nc4ccccc4)ccc3N(C)[C@H]12; cell line = mouse primary cortical neurons; conditions = up to 1 µM; endpoint = APP protein decrease; result = ≤ 70%
Compound = O=C1CCP(=S)(c2ccccc2)CC1; cell line = SW480; assay = MTT; conditions = 72 h; scale = reference: IC50 HaCaT over IC50 SW480; endpoint = selectivity index; result = 2.8
Compound = Oc1cc(Cl)ccc1Oc1ccc(Cl)cc1Cl; cell line = HepG2; assay = extracellular flux, refers to: oxygen consumption rate; conditions = 1 h, distribution mode 2; endpoint = point of departure; result = 9.12 µM
Compound = Nc1ncnc2c1ncn2[C@@H]1O[C@@H]2COP(=O)(O)O[C@H]3[C@@H](O)[C@H](n4cnc5c(=O)[nH]cnc54)O[C@@H]3COP(=O)(O)O[C@H]2[C@H]1O; cell line = HFF-1; assay = RNA sequencing Reactome analysis, refers to: Reactome R-HSA-9704646 defective HRR (PALB2, BRCA2/RAD51/RAD51C binding); conditions = together with: West Nile virus infection; scale = reference: West Nile virus infected cells, upregulated pathway; endpoint = pathway fold enrichment; result = 7.67
Compound = COc1ccc([C@@H](O)c2cc(-c3ncnc4cc(N5CCOCC5)ccc34)c(F)cc2Cl)nn1; cell line = M12; conditions = 1000 nM, together with: radiation 2.5 Gy; endpoint = clonogenic survival; result = 2 ± 0.2%
Compound = Cc1nn(-c2nc3c(F)cc(F)cc3s2)c(O)c1C(c1ccc(C(F)(F)F)cc1)c1c(C)nn(-c2nc3c(F)cc(F)cc3s2)c1O; cell line = RAW-ISG; assay = CCK-8; conditions = 50 µM; endpoint = viability; result = 67.8% and 73% and 64.1% and 42.9% and 39%
Compound = O=c1c(O)c(-c2ccc(O)c(O)c2)oc2cc(O)cc(O)c12; cell line = SH-SY5Y Aβ-GFP cells, scrambled shRNA; conditions = 5 µM; endpoint = neurite length; result = 32.5 to 36.5 µm
Compound = C/C=C(/C)C(=O)O[C@H]1C(C)=C2[C@H]([C@@H]1OC(=O)CCCCCCC)[C@@](C)(OC(C)=O)C[C@H](OC(=O)CCC)[C@@]1(O)[C@H]2OC(=O)[C@@]1(C)O; cell line = HEK-293T; assay = RNA-seq GSEA, refers to: Hallmark TGF-beta signaling; conditions = 500 nM, 6 h; scale = direction not given; endpoint = normalized enrichment score; result = -1.15
Compound = COc1ccc([C@H]2c3[nH]c4ccc(Cl)cc4c3CCN2C(=O)Oc2ccc(Cl)cc2)cc1; cell line = HUVEC and PBMC co-culture; assay = BioMAP SAg, refers to: CD40; conditions = 0.1 µM, 24 h, together with: TCR ligands; endpoint = inhibition; result = 29%
Compound = Nc1ccncc1; cell line = hiPSC glutamatergic neurons; assay = mean firing rate, multi-electrode array; endpoint = lowest effective concentration; result = 100 µM
Compound = O=C1N(Cc2ccccc2Cl)c2ccccc2C12NN=C(c1ccccc1)S2 (centres unmarked); cell line = MDA-MB-468; assay = gene expression array, refers to: C11orf74 mRNA; conditions = 10 µM, 12 h; scale = reference: untreated, down; endpoint = fold change; result = 1.57
Compound = C[C@]12CC[C@H](O)C[C@H]1CC[C@@H]1[C@@H]2C[C@@H](O)[C@]2(C)[C@@H](C3=CC(=O)OC3)CC[C@]12O; cell line = MYBPC3 iPSC cardiomyocytes; assay = plate-normalised; conditions = concentration not given, 24 h, hit retest; endpoint = MyBP-C level; result = 15.1%
Compound = COc1c(CCC[P+](c2ccccc2)(c2ccccc2)c2ccccc2)cc2c(c1OC)OCO2.[I-]; cell line = SF-539; assay = SRB; endpoint = TGI; result = -4.86 log M
Compound = CC1(C)CN(CCCCC(=O)N[C@H](Cc2ccc(O)c(I)c2)C(=O)N[C@H](Cc2ccccc2)C(=O)N[C@H](CCCCNC(=O)CCCCCCC(=O)NCCCC[C@H](NC(=O)N[C@@H](CCC(=O)O)C(=O)O)C(=O)O)C(=O)O)CC[N]2CC(C)(C)[S][Tc]2(=[O])[S]1 (some centres unmarked) [technetium-99m labelled]; cell line = LNCaP; conditions = 25 nM, 1 h, 4 °C; endpoint = internalized activity; result = 0.37 ± 0.2 %AD/mg protein
Compound = CCN(CC)c1ccc(C=NNC(=O)CSc2nc3ccccc3c(=O)n2Cc2ccc(S(N)(=O)=O)cc2)c(O)c1; cell line = SF-539; assay = NCI five-dose screen; endpoint = CC50; result = > 100 µM
Compound = CC(C)N1CCC(NC2CCN(c3cccc(-c4cc5cc(F)ccc5[nH]4)c3)CC2)CC1; cell line = NCI-H460; endpoint = GI50; result = 0.956 µM
Compound = Oc1ccc(C(c2ccc(O)cc2)(C(F)(F)F)C(F)(F)F)cc1; cell line = HepG2 spheroids; assay = planimetry; conditions = 10 µM, 0 to 24 h; scale = reference: mean area of 72 h spheroids; endpoint = spheroid area increase; result = 126%
Compound = COc1c(C)c2c(c(O)c1C/C=C(\C)CCC(=O)O)C(=O)OC2; cell line = IMR-90; assay = cell proliferation; test system = lung cancer; endpoint = IC50; result = 0.851 µM
Compound = COc1cc(CCC[P+](c2ccccc2)(c2ccccc2)c2ccccc2)c(OC)c2c1OCO2.[I-]; cell line = SF-295; assay = SRB; endpoint = TGI; result = -5.13 log M
Compound = CNC(=O)Oc1cccc2ccccc12; cell line = SH-SY5Y; assay = neurite outgrowth inhibition, phase-contrast imaging; conditions = 24 h, nominal concentration; endpoint = EC10; result = 3.42 µM
Compound = C[C@]12CC[C@H](O)C[C@H]1CC[C@@H]1[C@@H]2CC[C@]2(C)[C@@H](c3ccc(=O)oc3)CC[C@]12O; cell line = MCF7; assay = luciferase; conditions = 10 nM, unit not given; scale = reference: untreated; endpoint = ERE reporter activity; result = 1.75 and 1.25 and 1.34
Compound = CN1CCN(C2(CNC3CCN(c4cccc(-c5cc6cc(F)ccc6[nH]5)c4)CC3)CCC2)CC1; cell line = SF-539; endpoint = GI50; result = 1.66 µM
Compound = Oc1ccc(C2(c3ccc(O)cc3)c3ccccc3-c3ccccc32)cc1; cell line = HepG2 spheroids; assay = Hoechst flow cytometry; conditions = 1 µM, 24 h; endpoint = G1 phase cells; result = 71 ± 2.43%
Compound = CC(=O)O[C@H]1C[C@H](O[C@H]2[C@@H](O)C[C@H](O[C@H]3[C@@H](O)C[C@H](O[C@H]4CC[C@@]5(C)[C@H](CC[C@@H]6[C@@H]5C[C@@H](O)[C@]5(C)[C@@H](C7=CC(=O)OC7)CC[C@]65O)C4)O[C@@H]3C)O[C@@H]2C)O[C@H](C)[C@H]1O[C@@H]1O[C@H](CO)[C@@H](O)[C@H](O)[C@H]1O; cell line = MYBPC3 iPSC cardiomyocytes; assay = plate-normalised; conditions = concentration not given, 24 h, hit retest; endpoint = MyBP-C level; result = 8.9%
Compound = O=S(=O)(c1ccc(O)cc1)c1ccc(O)cc1; cell line = HepG2 spheroids; assay = Hoechst flow cytometry; conditions = 1 µM, 24 h; endpoint = S phase cells; result = 8.65 ± 0.71%
Compound = O=C(NOC[C@H](O)CO)c1ccc(F)c(F)c1Nc1ccc(I)cc1F; cell line = HD-MB03; conditions = together with: ribociclib 5 µM; scale = reference: ribociclib over DMSO; endpoint = fold change in IC50; result = 9.79
Compound = O=c1cc(-c2ccc(O)cc2)oc2cc(O)cc(O)c12; cell line = SH-SY5Y Aβ-GFP cells, TRKB shRNA; conditions = 5 µM; endpoint = neurite process number; result = 3.3
Compound = C[C@@H]1C[C@@H]([C@H](O)CC2CC(=O)NC(=O)C2)C(=O)[C@@H](C)C1; cell line = LDR; assay = silenced CMV-GFP reporter derepression, qHTS; endpoint = Emax; result = 32%
Compound = Cn1cncc1C1=CN(c2ncnc3[nH]cnc23)CCS1; cell line = A549/ATCC; conditions = lung cancer cell line; endpoint = CC50; result = > 200 µM
Compound = O=C(Nc1ccc2[nH]nc(-c3ccncc3)c2c1)[C@@H]1CCN(CC(=O)N2CCN(c3ccc(-c4ncccn4)cc3)CC2)C1; cell line = HCT116; assay = IncuCyte; conditions = concentration not given, 36 (unit not given); endpoint = PI-positive cells; result = 12.8 count and 11.7 count and 12 count
Compound = COc1ccc(OC)c(N2C(=O)NC(=O)/C(=C\c3ccc([N+](=O)[O-])s3)C2=O)c1; cell line = LDR; assay = silenced CMV-GFP reporter derepression, qHTS; endpoint = efficacy; result = 50%

Excerpt of the above:
Compound = C[C@]12CC[C@H](O)C[C@H]1CC[C@@H]1[C@@H]2CC[C@]2(C)[C@@H](c3ccc(=O)oc3)CC[C@]12O; cell line = MCF7; assay = luciferase; conditions = 10 nM, unit not given; scale = reference: untreated; endpoint = ERE reporter activity; result = 1.75 and 1.25 and 1.34
Compound = COc1ccc2c(c1)[nH]c1c(C)nccc12; cell line = DU-145; assay = bisulfite pyrosequencing, refers to: RASSF1A promoter CpG site 24; conditions = concentration not given; scale = reference: vehicle; endpoint = methylation reduction; result = 0%
Compound = Oc1ccc(C(c2ccc(O)cc2)(C(F)(F)F)C(F)(F)F)cc1; cell line = HepG2 spheroids; assay = planimetry; conditions = 10 µM, 0 to 24 h; scale = reference: mean area of 72 h spheroids; endpoint = spheroid area increase; result = 126%
